Assay results collected from several papers.
Parts stem from different laboratories: compare values within a part only.
Sequence of UniProt O15530 (whole entry, looked up): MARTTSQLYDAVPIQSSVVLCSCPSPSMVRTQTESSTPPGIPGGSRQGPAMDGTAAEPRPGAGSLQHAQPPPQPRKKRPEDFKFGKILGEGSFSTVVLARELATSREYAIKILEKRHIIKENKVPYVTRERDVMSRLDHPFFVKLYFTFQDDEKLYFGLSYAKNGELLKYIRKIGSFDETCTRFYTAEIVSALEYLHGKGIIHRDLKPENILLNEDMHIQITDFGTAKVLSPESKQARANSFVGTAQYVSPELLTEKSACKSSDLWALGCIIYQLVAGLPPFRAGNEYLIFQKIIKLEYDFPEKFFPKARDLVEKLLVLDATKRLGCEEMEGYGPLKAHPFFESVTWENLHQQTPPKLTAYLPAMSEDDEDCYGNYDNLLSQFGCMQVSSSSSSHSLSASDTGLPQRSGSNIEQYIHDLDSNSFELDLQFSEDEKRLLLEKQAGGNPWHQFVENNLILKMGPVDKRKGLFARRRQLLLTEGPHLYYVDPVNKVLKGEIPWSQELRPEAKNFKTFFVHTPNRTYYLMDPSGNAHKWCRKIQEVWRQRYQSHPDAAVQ
Sequence of UniProt P00519 (whole entry, unmodified, looked up): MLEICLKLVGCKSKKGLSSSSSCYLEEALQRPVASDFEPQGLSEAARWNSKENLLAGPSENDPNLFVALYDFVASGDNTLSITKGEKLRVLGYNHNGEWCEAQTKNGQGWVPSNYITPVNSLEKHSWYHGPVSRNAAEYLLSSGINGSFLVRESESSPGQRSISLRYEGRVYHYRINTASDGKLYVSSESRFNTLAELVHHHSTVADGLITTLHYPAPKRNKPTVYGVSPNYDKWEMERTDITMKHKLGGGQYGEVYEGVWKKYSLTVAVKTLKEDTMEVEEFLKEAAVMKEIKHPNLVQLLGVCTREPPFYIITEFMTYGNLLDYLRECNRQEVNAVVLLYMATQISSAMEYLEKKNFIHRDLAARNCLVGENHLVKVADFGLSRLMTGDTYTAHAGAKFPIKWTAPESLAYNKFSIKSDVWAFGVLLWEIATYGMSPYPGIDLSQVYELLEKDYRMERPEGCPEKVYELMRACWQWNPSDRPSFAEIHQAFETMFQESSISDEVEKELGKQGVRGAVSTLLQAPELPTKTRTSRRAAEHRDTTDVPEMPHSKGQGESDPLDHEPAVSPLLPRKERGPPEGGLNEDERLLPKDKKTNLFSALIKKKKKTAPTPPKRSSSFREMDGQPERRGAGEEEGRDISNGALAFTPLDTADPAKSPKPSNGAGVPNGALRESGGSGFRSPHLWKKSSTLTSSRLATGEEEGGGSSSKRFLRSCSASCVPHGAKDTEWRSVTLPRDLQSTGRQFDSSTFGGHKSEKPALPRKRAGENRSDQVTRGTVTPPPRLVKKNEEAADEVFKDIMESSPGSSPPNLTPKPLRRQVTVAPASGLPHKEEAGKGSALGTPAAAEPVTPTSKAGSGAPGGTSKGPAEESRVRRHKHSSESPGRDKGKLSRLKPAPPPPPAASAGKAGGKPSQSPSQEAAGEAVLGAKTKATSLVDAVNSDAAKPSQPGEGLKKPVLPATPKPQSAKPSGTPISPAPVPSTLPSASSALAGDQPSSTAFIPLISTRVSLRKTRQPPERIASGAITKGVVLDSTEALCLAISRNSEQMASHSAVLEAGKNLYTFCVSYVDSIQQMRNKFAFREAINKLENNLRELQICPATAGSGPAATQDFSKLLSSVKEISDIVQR
Sequence of UniProt Q8NE63 (whole entry, looked up): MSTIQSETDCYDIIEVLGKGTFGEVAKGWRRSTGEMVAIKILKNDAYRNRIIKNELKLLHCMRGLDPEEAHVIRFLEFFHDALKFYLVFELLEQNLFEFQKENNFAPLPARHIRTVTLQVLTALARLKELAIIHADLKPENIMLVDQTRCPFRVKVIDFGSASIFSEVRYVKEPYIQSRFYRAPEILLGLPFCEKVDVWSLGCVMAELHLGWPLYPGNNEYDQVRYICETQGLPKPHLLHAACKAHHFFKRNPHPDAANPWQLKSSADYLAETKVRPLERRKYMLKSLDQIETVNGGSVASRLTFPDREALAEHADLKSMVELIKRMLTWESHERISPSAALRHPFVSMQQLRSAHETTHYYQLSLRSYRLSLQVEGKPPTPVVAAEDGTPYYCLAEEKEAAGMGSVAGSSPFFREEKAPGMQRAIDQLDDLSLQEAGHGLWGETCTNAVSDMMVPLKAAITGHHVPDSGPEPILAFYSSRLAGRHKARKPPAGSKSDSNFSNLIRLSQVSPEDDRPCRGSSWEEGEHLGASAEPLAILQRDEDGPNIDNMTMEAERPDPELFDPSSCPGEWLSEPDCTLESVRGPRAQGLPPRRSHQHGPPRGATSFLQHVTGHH
Sequence of UniProt P23443 (whole entry, looked up): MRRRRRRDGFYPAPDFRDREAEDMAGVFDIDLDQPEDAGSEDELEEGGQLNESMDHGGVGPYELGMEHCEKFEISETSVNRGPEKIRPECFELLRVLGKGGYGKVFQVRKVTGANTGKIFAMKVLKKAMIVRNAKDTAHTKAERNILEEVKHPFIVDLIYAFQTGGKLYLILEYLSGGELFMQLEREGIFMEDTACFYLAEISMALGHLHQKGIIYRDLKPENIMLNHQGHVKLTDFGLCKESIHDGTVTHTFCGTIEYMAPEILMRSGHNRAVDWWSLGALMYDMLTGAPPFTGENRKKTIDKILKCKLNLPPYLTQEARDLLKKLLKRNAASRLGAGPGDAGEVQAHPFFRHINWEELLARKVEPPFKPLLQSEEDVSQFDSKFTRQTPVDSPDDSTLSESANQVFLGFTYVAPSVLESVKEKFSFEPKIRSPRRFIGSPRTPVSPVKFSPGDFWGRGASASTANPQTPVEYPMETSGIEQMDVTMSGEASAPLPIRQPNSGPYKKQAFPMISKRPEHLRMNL
Sequence of UniProt P32247 (whole entry, looked up): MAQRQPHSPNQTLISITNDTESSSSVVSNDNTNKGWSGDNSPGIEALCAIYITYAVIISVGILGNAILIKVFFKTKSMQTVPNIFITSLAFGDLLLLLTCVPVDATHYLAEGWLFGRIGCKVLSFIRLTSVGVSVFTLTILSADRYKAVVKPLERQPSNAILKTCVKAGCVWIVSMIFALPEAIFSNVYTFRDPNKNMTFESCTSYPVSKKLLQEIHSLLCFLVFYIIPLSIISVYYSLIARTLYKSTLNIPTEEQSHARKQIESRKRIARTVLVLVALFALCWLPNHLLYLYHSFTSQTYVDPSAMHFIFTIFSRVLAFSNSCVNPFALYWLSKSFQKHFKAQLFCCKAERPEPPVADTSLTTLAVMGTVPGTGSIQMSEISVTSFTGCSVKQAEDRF
Sequence of UniProt Q8TDU6 (whole entry, looked up): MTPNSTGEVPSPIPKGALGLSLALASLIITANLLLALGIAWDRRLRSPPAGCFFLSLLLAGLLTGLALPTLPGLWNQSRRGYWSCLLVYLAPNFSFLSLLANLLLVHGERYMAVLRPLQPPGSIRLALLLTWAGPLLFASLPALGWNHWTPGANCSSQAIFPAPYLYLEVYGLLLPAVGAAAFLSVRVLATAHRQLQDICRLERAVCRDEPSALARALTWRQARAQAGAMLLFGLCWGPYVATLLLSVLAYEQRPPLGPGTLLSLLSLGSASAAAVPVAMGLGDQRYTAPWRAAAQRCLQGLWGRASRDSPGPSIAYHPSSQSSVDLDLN
Sequence of UniProt Q9H2X6 (whole entry, looked up): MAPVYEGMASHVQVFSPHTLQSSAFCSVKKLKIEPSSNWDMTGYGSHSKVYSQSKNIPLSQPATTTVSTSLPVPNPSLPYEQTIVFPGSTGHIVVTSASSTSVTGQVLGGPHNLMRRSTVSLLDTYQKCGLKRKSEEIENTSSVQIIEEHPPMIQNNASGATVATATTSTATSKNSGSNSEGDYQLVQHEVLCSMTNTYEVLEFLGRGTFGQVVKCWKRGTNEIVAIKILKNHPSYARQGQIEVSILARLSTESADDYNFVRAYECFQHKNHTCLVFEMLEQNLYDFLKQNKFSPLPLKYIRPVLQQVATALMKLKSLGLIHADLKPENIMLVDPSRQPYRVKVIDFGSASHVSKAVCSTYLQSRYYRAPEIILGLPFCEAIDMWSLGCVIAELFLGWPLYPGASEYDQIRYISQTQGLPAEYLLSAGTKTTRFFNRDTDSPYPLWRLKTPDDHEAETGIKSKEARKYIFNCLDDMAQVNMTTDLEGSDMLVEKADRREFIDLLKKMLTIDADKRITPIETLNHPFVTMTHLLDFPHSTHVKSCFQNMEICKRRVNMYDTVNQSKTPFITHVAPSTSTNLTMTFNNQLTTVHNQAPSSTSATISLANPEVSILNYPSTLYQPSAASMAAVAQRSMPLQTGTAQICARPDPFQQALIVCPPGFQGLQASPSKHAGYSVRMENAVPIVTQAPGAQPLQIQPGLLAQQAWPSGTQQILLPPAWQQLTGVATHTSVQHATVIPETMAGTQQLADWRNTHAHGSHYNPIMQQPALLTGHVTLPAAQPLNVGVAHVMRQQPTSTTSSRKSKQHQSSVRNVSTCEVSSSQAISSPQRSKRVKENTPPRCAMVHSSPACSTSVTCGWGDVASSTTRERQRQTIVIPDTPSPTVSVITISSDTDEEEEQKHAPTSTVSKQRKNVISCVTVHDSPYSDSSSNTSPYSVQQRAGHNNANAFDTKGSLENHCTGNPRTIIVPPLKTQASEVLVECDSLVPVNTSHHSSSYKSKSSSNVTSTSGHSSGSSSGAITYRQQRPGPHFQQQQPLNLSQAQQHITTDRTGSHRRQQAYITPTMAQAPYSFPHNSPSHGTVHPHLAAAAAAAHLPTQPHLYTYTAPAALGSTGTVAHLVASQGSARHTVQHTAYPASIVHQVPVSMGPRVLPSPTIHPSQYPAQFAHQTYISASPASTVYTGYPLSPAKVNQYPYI
Sequence of UniProt P06493 (whole entry, looked up): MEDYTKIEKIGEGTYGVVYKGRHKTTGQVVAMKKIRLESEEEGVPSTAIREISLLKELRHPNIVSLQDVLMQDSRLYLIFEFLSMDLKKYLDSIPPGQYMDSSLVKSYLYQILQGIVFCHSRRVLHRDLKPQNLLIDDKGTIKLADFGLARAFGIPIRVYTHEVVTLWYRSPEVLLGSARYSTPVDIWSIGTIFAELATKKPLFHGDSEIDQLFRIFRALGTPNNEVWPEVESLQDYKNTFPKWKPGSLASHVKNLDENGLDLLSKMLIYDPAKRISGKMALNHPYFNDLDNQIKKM

Sample 1
SMILES: Cc1nccc(COC(=O)N2C[C@@H]3[C@@H](CNC(=O)c4ccc5[nH]nnc5c4)[C@@H]3C2)n1
Method: competition with immobilised ligand
Concentration: 1 µM
target	observed	remaining binding [%]
Misshapen-like kinase 1 (MINK1, Homo sapiens, UniProt Q8N4C8)	cell-free assay	100
Rhodopsin kinase GRK7 (GRK7, Homo sapiens, UniProt Q8WTQ7)	cell-free assay	88
Tyrosine-protein kinase ABL1, phosphorylated (ABL1, Homo sapiens, UniProt P00519, E255K)	binding	89
3-phosphoinositide-dependent protein kinase 1 (PDPK1, Homo sapiens, UniProt O15530)	cell-free assay	100
Ribosomal protein S6 kinase beta-1 (RPS6KB1, Homo sapiens, UniProt P23443)	cell-free assay	84
Mitogen-activated protein kinase 14 (MAPK14, Homo sapiens, UniProt Q16539)	cell-free assay	100
Microtubule-associated serine/threonine-protein kinase 1 (MAST1, Homo sapiens, UniProt Q9Y2H9)	cell-free assay	100
Tyrosine-protein kinase Fyn (FYN, Homo sapiens, UniProt P06241)	cell-free assay	100
Ephrin type-A receptor 3 (EPHA3, Homo sapiens, UniProt P29320)	cell-free assay	93
Cyclin-dependent kinase 16 (CDK16, Homo sapiens, UniProt Q00536)	cell-free assay	78

Sample 2
SMILES: c1ccc(-c2[nH]ncc2-c2ccnc3ccccc23)nc1
Observed: enzyme activity
Mode: inhibitor
Concentration: 0.5 µM
Reference: control
target	remaining activity
Serine/threonine-protein kinase 17A (STK17A, Homo sapiens, UniProt Q9UEE5)	117%
cAMP-dependent protein kinase catalytic subunit gamma (PRKACG, Homo sapiens, UniProt P22612)	92.9%
Tyrosine-protein kinase Blk (BLK, Homo sapiens, UniProt P51451)	99.9%
Cyclin-dependent kinase 6, with cyclin D3 (CDK6, Homo sapiens, UniProt Q00534)	98.2%
Phosphorylase b kinase gamma catalytic chain, skeletal muscle/heart isoform (PHKG1, Homo sapiens, UniProt Q16816)	94.2%
Cyclin-dependent kinase 4, with cyclin D3 (CDK4, Homo sapiens, UniProt P11802)	102%
Serine/threonine-protein kinase 16 (STK16, Homo sapiens, UniProt O75716)	100%
Ribosomal protein S6 kinase alpha-6 (RPS6KA6, Homo sapiens, UniProt Q9UK32)	112%
Ribosomal protein S6 kinase alpha-5 (RPS6KA5, Homo sapiens, UniProt O75582)	102%
Cyclin-dependent kinase 1, with cyclin B (CDK1, Homo sapiens, UniProt P06493)	106%
Testis-specific serine/threonine-protein kinase 2 (TSSK2, Homo sapiens, UniProt Q96PF2)	83.5%
MAP kinase-activated protein kinase 3 (MAPKAPK3, Homo sapiens, UniProt Q16644)	92.9%
Tyrosine-protein kinase Srms (SRMS, Homo sapiens, UniProt Q9H3Y6)	105%
Tyrosine-protein kinase ABL1 (ABL1, Homo sapiens, UniProt P00519)	77.1%
Mitogen-activated protein kinase kinase kinase kinase 4 (MAP4K4, Homo sapiens, UniProt O95819)	48.3%
Ephrin type-B receptor 1 (EPHB1, Homo sapiens, UniProt P54762)	98.7%
Dual specificity tyrosine-phosphorylation-regulated kinase 3 (DYRK3, Homo sapiens, UniProt O43781)	104%
Tyrosine-protein kinase receptor UFO (AXL, Homo sapiens, UniProt P30530)	101%
Ephrin type-B receptor 4 (EPHB4, Homo sapiens, UniProt P54760)	89.1%
Ephrin type-A receptor 4 (EPHA4, Homo sapiens, UniProt P54764)	98%
Homeodomain-interacting protein kinase 2 (HIPK2, Homo sapiens, UniProt Q9H2X6)	91.3%
Calcium/calmodulin-dependent protein kinase type II subunit beta (CAMK2B, Homo sapiens, UniProt Q13554)	97.2%
Homeodomain-interacting protein kinase 4 (HIPK4, Homo sapiens, UniProt Q8NE63)	89.9%
3-phosphoinositide-dependent protein kinase 1 (PDPK1, Homo sapiens, UniProt O15530)	93.8%

Sample 3
Cell line: mouse MPNST tumor cells
Method: high-content immunofluorescence imaging
Refers to: nuclear SOX9
Concentration: 10 µM
Time: 12 h
Setting: mean of 2 replicates
Reference: DMSO control
Direction: higher = more nuclear SOX9
Compound	nuclear SOX9 intensity
O=C(O)Cc1ccc(-c2ccccc2)cc1	96.5 % of DMSO
CCC(C)CCCC(=O)NC(CCN)C(=O)NC(C(=O)NC(CCN)C(=O)NC1CCNC(=O)C(C(C)O)NC(=O)C(CCN)NC(=O)C(CCN)NC(=O)C(CC(C)C)NC(=O)C(CC(C)C)NC(=O)C(CCN)NC1=O)C(C)O (centres unmarked)	97.1 % of DMSO
O=C(O)c1cc(=O)c2c(OCC(O)COc3cccc4oc(C(=O)O)cc(=O)c34)cccc2o1	98.6 % of DMSO
CC(C)C(C(=O)Nc1nccs1)c1ccc(Cl)cc1 (centres unmarked)	114 % of DMSO
CC1(C)O[C@@H]2C[C@H]3[C@@H]4C[C@H](F)C5=CC(=O)C=C[C@]5(C)[C@H]4[C@@H](O)C[C@]3(C)[C@]2(C(=O)CO)O1	68.3 % of DMSO
CCOC(=O)COc1ccc2c(c1)C[C@@H](NC[C@H](O)c1cccc(Cl)c1)CC2	103 % of DMSO
Cc1[nH]c(/C=C2\C(=O)Nc3ccccc32)c(C)c1CCC(=O)O	97.1 % of DMSO
CCOC(=O)OC(C)OC(=O)[C@@H]1N2C(=O)[C@@H](NC(=O)[C@H](N)c3ccccc3)[C@H]2SC1(C)C (some centres unmarked)	89.2 % of DMSO
CN1CCN(c2cc(-c3ccccc3)nc(N)n2)CC1	120 % of DMSO
CCn1cc(C(=O)O)c(=O)c2cc(F)c(N3CCNCC3)cc21	105 % of DMSO
CC(=O)NS(=O)(=O)c1ccc(N)cc1	107 % of DMSO
COC1C(O)CC(=O)OC(C)CC=CC=CC(OC2CCC(N(C)C)C(C)O2)C(C)CC(CC=O)C1OC1OC(C)C(OC2CC(C)(O)C(O)C(C)O2)C(N(C)C)C1O (centres unmarked)	108 % of DMSO

Sample 4
Structure (SMILES): N=C(N)NC(=O)c1cnn(-c2cccc3ncccc23)c1C1CC1
Observed: β-arrestin recruitment
Mode: agonist
Method: PRESTO-Tango
Concentration: 10 µM
Reference: untreated
target	fold over basal
12-(S)-hydroxy-5,8,10,14-eicosatetraenoic acid receptor (GPR31, Homo sapiens, UniProt O00270)	1.05
Probable G-protein coupled receptor 173 (GPR173, Homo sapiens, UniProt Q9NS66)	1.31
Gastrin/cholecystokinin type B receptor (CCKBR, Homo sapiens, UniProt P32239)	1.14
Substance-P receptor (TACR1, Homo sapiens, UniProt P25103)	1.48 fold
D(2) dopamine receptor (DRD2, Homo sapiens, UniProt P14416)	0.75
G-protein coupled bile acid receptor 1 (GPBAR1, Homo sapiens, UniProt Q8TDU6)	1.05 fold
G-protein coupled receptor 15 (Homo sapiens, UniProt P49685)	1.13
Bombesin receptor subtype-3 (BRS3, Homo sapiens, UniProt P32247)	1.33
Opsin-3 (OPN3, Homo sapiens, UniProt Q9H1Y3)	1.26
Relaxin-3 receptor 2 (RXFP4, Homo sapiens, UniProt Q8TDU9)	3.51

For quick reference, copied from above (sample 2):
target	remaining activity
Mitogen-activated protein kinase kinase kinase kinase 4 (MAP4K4, Homo sapiens, UniProt O95819)	48.3%
Ephrin type-B receptor 1 (EPHB1, Homo sapiens, UniProt P54762)	98.7%
Dual specificity tyrosine-phosphorylation-regulated kinase 3 (DYRK3, Homo sapiens, UniProt O43781)	104%
Tyrosine-protein kinase receptor UFO (AXL, Homo sapiens, UniProt P30530)	101%
Ephrin type-B receptor 4 (EPHB4, Homo sapiens, UniProt P54760)	89.1%
